Results pooled from the literature.
A part holds a random share of what one study measured. Positions count from the first letter of the parent shown.
Sequence of UniProt Q13976 (whole entry, looked up): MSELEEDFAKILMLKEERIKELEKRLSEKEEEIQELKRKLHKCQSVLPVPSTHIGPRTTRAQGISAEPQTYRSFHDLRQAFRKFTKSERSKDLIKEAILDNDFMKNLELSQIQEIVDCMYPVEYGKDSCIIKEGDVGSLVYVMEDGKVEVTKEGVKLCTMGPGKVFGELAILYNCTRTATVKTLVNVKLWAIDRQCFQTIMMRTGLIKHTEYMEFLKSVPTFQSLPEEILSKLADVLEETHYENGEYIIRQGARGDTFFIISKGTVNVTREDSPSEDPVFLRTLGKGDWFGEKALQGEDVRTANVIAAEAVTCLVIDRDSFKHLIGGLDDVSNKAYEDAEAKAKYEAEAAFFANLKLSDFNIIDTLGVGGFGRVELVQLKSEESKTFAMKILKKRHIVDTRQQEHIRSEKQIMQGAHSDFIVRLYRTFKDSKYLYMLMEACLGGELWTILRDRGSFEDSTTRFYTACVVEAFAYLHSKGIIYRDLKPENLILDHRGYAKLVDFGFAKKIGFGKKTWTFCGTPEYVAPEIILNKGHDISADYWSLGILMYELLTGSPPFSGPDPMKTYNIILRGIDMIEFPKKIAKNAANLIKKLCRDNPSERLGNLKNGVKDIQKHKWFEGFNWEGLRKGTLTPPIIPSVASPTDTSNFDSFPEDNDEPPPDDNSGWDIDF
Sequence of UniProt P48729 (whole entry, looked up): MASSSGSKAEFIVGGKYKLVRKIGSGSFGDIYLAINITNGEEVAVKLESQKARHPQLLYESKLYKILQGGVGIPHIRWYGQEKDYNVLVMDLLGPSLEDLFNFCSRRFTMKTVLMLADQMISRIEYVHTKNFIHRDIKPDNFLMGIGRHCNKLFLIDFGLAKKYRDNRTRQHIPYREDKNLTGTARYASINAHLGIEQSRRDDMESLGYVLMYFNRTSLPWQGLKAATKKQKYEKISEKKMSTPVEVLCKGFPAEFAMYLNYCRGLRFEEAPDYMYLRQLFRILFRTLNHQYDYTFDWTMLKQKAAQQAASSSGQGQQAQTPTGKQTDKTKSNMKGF
Sequence of UniProt P68400 (whole entry, looked up): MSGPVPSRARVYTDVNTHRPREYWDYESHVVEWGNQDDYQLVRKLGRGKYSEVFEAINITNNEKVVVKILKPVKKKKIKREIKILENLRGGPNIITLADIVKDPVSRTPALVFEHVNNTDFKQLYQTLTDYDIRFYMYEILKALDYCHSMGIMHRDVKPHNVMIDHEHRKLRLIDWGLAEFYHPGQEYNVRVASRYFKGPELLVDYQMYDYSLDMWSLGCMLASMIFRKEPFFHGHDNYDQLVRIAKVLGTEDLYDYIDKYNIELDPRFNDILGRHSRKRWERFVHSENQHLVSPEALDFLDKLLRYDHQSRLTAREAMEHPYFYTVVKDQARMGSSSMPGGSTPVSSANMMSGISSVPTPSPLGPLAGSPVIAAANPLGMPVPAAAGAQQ
Sequence of UniProt O15294 (whole entry, looked up): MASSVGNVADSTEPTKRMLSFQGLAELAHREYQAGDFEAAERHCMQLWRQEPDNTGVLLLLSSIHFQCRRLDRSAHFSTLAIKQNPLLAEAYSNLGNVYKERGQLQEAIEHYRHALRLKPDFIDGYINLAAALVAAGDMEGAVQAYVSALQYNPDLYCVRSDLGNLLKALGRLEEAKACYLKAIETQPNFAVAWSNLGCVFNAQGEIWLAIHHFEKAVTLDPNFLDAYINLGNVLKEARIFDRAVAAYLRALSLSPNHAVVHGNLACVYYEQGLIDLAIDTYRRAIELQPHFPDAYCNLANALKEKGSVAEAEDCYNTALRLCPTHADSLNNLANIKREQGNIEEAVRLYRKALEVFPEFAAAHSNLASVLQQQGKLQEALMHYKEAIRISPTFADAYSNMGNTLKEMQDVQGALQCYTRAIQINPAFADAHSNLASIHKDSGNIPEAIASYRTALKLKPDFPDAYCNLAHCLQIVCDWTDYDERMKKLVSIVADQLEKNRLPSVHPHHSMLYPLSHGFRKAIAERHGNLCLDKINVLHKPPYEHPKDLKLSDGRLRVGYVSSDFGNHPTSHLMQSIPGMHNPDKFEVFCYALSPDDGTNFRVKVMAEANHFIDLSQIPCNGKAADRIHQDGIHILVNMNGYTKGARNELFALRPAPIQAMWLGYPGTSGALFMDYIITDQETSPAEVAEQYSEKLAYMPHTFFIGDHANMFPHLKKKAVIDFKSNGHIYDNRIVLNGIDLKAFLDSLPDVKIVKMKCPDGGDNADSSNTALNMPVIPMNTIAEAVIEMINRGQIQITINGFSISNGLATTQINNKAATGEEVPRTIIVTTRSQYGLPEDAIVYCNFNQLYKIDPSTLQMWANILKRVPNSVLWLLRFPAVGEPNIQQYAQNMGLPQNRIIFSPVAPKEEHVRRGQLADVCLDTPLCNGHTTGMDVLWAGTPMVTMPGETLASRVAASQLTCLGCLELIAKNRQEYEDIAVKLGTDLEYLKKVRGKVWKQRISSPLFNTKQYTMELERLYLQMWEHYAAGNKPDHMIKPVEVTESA

Series 1
Target: TAR DNA-binding protein 43, full length, His tag (TARDBP, Homo sapiens, UniProt Q13148, residues 1-414)
Technique: RNA Bind-n-Seq
Form: RNA
Sample: in vitro
Tested at: 20 nM
Setting: 6-mer, flanks averaged, single round
Added: 150 mM LiCl
Relative to: input library
Direction: higher = stronger binding
Strand | 6-mer enrichment (R)
CCCUCG | 0.993
AACAUC | 0.805
UCGGGA | 0.954
CCCCAU | 1.19
UUAGCU | 0.923
UCACUU | 0.904
UCCUGU | 0.963
AUGACG | 0.882

Series 2
Target: Protein C-ets-1 (ETS1, Homo sapiens, UniProt P14921, residues 1-441, Y397A, full length assumed)
Technique: protein-binding microarray
Form: double-stranded DNA, one strand shown
Sample: in vitro
Tested at: not given
Setting: k-mer, scored over probes, only values ≥0.25
Direction: higher = stronger binding
Construct (chain): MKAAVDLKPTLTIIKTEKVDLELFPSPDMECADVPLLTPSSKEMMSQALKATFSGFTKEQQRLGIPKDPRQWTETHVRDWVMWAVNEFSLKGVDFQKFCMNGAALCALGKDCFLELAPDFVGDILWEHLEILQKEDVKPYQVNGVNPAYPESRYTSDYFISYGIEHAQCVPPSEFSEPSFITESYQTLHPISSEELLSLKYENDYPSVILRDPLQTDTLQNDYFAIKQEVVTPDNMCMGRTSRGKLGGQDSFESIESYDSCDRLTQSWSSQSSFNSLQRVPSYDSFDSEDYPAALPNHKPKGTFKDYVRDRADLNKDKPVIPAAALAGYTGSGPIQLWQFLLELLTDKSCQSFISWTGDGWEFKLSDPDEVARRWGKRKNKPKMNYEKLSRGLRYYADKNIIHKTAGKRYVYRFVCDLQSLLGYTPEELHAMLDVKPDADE
Strand | E-score
GTTTGCTA | 0.303
CCACTTCC | 0.404
GTGACAAA | 0.409
TGTGACAA | 0.325
TCCGCGGA | 0.255
TACCGACA | 0.318
GTCGCGAC | 0.403
TCCGCCAA | 0.252

Series 3
Target: CCNA2, cyclin fold, Cln2 fusion (human)
Technique: yeast growth competition, sequencing
Sample: yeast
Setting: strong parent motif
Relative to: not given
Direction: higher = stronger binding
Starting sequence: viral docking peptide; TSVRRALFTGGSD
Substitution | normalised enrichment score
TSVRRANFTGGSD [L7N] | 0.274
TSVSRALFTGGSD [R4S] | 4.14
TKVRRALFTGGSD [S2K] | 6.67
TSVRRAKFTGGSD [L7K] | 0.683
TSVRRALMTGGSD [F8M] | 0.57
TSRRRALFTGGSD [V3R] | 1.92
TSVRLALFTGGSD [R5L] | 0.438
TSMRRALFTGGSD [V3M] | 1.87
TSKRRALFTGGSD [V3K] | 0.966
TSVRRALDTGGSD [F8D] | 0.378
TSVRRALFQGGSD [T9Q] | 5.97
TSVRRALFTGGGD [S12G] | 6.14
TSVRRALFTAGSD [G10A] | 6.36
TSVRRALHTGGSD [F8H] | 0.63
TSVRPALFTGGSD [R5P] | -0.595
TSVRRALNTGGSD [F8N] | 0.639
TSDRRALFTGGSD [V3D] | -0.146
TSVRYALFTGGSD [R5Y] | 0.406
TSARRALFTGGSD [V3A] | 6.14
TRVRRALFTGGSD [S2R] | 6.52
TSVRRALFTGGND [S12N] | 6.2
TSVRRQLFTGGSD [A6Q] | 6.41
TSVVRALFTGGSD [R4V] | 3.81
TSVRNALFTGGSD [R5N] | 0.281
TSVRRALVTGGSD [F8V] | 0.375

Series 4
SMILES: CC(C)(C)c1cc(C=C(C#N)C#N)cc(Br)c1O
Read-out: enzyme activity
Action: inhibitor
Tested at: 0.5 µM
Relative to: control
target | remaining activity
CSNK2A1 (Homo sapiens, UniProt P68400) | 99.3%
CSNK1A1 (Homo sapiens, UniProt P48729) | 84.5%
PRKG1 (Homo sapiens, UniProt Q13976) | 103%

Series 5
Target: Sal-like protein 4, full length isoform A (SALL4, Homo sapiens, UniProt Q9UJQ4, residues 1-1053)
Sequence of UniProt Q9UJQ4 (whole entry, looked up): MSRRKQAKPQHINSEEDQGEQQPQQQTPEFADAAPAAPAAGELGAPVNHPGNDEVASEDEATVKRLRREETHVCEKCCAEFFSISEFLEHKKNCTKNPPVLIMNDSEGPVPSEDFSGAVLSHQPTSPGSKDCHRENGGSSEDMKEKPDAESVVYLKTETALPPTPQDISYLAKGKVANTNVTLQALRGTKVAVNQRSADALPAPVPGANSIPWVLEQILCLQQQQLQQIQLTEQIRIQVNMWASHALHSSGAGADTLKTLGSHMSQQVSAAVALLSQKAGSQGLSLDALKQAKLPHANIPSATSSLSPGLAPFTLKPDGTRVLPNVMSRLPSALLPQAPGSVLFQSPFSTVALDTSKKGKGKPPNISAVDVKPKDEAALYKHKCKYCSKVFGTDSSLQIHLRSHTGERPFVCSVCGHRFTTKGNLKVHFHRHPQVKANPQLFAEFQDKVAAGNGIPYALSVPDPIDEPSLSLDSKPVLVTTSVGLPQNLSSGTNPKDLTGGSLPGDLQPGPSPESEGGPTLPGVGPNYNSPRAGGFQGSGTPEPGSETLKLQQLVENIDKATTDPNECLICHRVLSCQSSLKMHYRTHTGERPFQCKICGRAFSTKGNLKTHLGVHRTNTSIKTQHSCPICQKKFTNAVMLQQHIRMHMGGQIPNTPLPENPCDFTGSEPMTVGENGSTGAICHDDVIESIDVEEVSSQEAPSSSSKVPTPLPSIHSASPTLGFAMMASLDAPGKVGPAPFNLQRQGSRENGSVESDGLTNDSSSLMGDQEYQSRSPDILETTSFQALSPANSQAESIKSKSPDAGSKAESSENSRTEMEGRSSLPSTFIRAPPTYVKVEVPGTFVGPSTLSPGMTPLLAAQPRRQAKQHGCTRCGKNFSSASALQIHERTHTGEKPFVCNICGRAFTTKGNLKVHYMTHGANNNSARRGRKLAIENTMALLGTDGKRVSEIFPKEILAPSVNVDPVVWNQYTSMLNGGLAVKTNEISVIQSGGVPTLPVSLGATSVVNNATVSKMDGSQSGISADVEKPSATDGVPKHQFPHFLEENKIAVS
Technique: universal PBM
Form: double-stranded DNA, one strand shown
Sample: in vitro
Tested at: 600 nM
Setting: 8-mer, flanks averaged, mean of replicates
Direction: higher = stronger binding
Strand | E-score
CCCATGCC | -0.339
ACGTGGAA | -0.0258
CATTAACC | 0.164
GAAGGACA | 0.0247
GAAGTCAC | -0.114
AAGGAGAA | 0.0797
AATTTTCT | 0.228
AGAATCGG | -0.141

Other studies, line by line
Molecule | target | assay | system | setting | scale | measurement | result
DQGMTKDTHHIHTHH | UDP-N-acetylglucosamine--peptide N-acetylglucosaminyltransferase 110 kDa subunit (OGT, Homo sapiens, UniProt O15294) | binding, phage display NGS | peptide | panning round 2 | relative to: input library | minimum log2 enrichment ratio | 2.84

Repeated from above (series 2):
Strand | E-score
GTTTGCTA | 0.303
CCACTTCC | 0.404
GTGACAAA | 0.409
TGTGACAA | 0.325
